Experimental data from different studies.
A part holds a random share of what one study measured.

Block 1 — technique: protein-binding microarray; form: double-stranded DNA, one strand shown; sample: in vitro; tested at: 2540 nM top; setting: 60-bp whole probe; together with: salmon DNA 0.4 mg/ml; reference: random background probes; reading: higher = stronger binding; constant ends, left off below: GCCTAGCAC … GTCTTGATTCGCTTGACGCTGCTG
Target: Interferon regulatory factor 3, full length, phosphomimetic (IRF3, Homo sapiens, UniProt Q14653, residues 1-427, S386D/S396D/S398D/S402D/T404D/S405D)
Sequence of UniProt Q14653 (whole entry, unmodified, looked up): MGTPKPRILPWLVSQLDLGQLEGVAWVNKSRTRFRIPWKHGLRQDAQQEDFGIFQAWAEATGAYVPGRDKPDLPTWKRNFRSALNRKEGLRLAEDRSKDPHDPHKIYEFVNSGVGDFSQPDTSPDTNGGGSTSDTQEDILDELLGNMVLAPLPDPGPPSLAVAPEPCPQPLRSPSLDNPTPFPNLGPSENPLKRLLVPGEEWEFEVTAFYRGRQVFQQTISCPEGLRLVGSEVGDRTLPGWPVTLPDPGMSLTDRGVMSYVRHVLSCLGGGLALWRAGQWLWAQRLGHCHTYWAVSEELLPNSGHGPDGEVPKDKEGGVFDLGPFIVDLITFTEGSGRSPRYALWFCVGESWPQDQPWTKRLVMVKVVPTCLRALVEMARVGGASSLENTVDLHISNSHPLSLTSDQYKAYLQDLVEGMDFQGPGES
Strand | fitted relative affinity
GACGGTTTCCTTTTCCTGGCGTGCTAG | 10.6 z-score
TCACATTCCCCATTGTGACTGTGCTAG | 2.1 z-score
GACGAACTGCGACTGGAGACGTGCTAG | -0.38 z-score
TTAGAACTGGGGTAACGATTAGTGCTA | -0.684 z-score
AACGATTTCAGTCTCGAGACGTGCTAG | 2.15 z-score
TCAATTTTCATTTTGTGACTGTGCTAG | 2.66 z-score
TCATATATATTGTTAGTACTGTGCTAG | 0.429 z-score
TCACTATTATATATATCACTGTGCTAG | 0.821 z-score
GACGATTTCGGATTTCGAGACGTGCTA | 4.08 z-score
TCAATTTTCAATTCCTGACTGTGCTAG | 1.69 z-score
TTAGATATCAGTATTGATTAGTGCTAG | 0.855 z-score
TTAGGTCTCATTATCCTTTAGTGCTAG | 2.05 z-score
TTAGGACTGGGGTATCCGTTAGTGCTA | -0.152 z-score
ATAGAACTGAGTCTCGATTAGTGCTAG | -0.187 z-score
TCATTTTTTTTTTTTGGACTGTGCTAG | 1.17 z-score
TCAGCTTACAATATAAAACTGTGCTAG | 0.528 z-score
TCATTTTTGTATTTTTGACTGTGCTAG | 1.51 z-score
GAGGATATCAGACTGGAGACGTGCTAG | -0.148 z-score
GACGAGTTCAGTTCCGAGACGTGCTAG | 0.696 z-score

Block 2 — technique: RNA Bind-n-Seq; form: RNA; sample: in vitro; tested at: 365 nM; reference: no-protein control; reading: higher = stronger binding
Target: RNA binding protein fox-1 homolog 2, RRM domain, GST-SBP tag (RBFOX2, Homo sapiens, UniProt O43251-10, residues 100-194)
Setting: natural RNA segment, single round, ends assumed
Constant ends, left off below: GGGAGUUCUACAGUCCGACGAUC … UGGAAUUCUCGGGUGCCAA
Residues (chain): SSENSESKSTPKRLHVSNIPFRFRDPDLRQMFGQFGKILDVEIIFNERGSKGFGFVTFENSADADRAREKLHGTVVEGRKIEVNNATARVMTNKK
Strand | RBNS enrichment (R)
AGAAUUAUUUUCUGAGAGAAUCUUAAACUUAGAAUAUUCAGAUGCAGUAGAUACUGGCGUGUGGAGAUUCACAGACGACCUCAGCACCCAUCCCACCAGGUCCCUGGACU | 0.224
UGUUGCCCAGCUCUGUAGACAUCCCUGCUCCCCAGCUGCCCAAAGACCCCCUCCCCAUUGAUGCCACCUCAAGGAAAGGGGGCAUGUUGCCAGCUGGUUCCCGCUAGGGA | 0.424
UUUUGAACGUUGGGUUUUUUGUUGGAAGAAACUUGGAUGAAUCUGUCAUGUCAUUAACAGAACUGAAAUAUUCUAUUGUAAGACGUGCAUUUGCGGUUAGAAUGGUCUUG | 1.11
CUCAGCCACUGGUACUCUGAGGCCCUUGAGGCUCUUUGUAAAGCUCUUUUAUAUCUAUUGACAAAGGUGUGGGGUCUGGCAAAUGAAGUGUGCUGUUCUCAGCCUAAGAU | 0.571
GCUAUCCAAACUGGGGAAGAAGGGGAAAUGGUUGUUACCAACAAUCUCUAGUAGUUAUUUUAAUCUUUAUUUUAACCUGGAUUGCAAAUGUAUGGGGUAUGAGGAGAUAA | 4.93
CUUGUACCGAAGCCUCAAGCUGGAACACUAUGACCACGAUGAUGUCAGGCCGGGCGGCCAGCCUUGCACUACUGACCACGAUGAUGCCAGGCUGGGCGGCCAGCCUUGCA | 0.183
AAUGUGGACUAUUUUGAAAUUAUAACCAUUUUUGAUGCCCUGAAUCUUGAGGUGACUUAUUUUGCAUAGAGGAUAUGGAUAGACCAACAGUAAGGGUUGUGGGUUAUACC | 1.08
UUCAUAAUUCAGAAGUAAACCUUUCAUAGGAAAAAUACUGAGCUGUGCUAAUGUAGCUGAUUUUAGUCUCCUUGUCCCACUUACACUAUGCAGUAUCUCCUAACUUCAGU | 0.286

Block 3 — technique: protein binding microarray; form: double-stranded DNA, one strand shown; sample: in vitro; tested at: not given; reference: not given; reading: higher = stronger binding
Target: Histone acetyltransferase KAT6A, winged helix 1, GST fusion (KAT6A, Homo sapiens, UniProt Q92794, residues 1-85)
Setting: 8-mer, flanks averaged, mean of 2 arrays, mostly near background
Target sequence (chain): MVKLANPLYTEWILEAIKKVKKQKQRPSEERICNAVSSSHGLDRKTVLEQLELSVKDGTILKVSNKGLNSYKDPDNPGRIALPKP
Strand | E-score
CCGTAAGC | 0.207
ATACTCAC | -0.158
GAGGGGAA | -0.0959
CAGGTGTA | -0.105
CGACCAGA | -0.105
AGGGTACA | -0.14
CTTACTGC | 0.0486
TTGTGAAA | -0.237
AAATGTGA | -0.0106
CATCTTAC | -0.144
GAACCGGA | 0.234
AGGCGCGA | 0.294
GGACACTA | -0.0935
ACAATCTG | -0.165
GGACCTAA | 0.0616
CCTATCCA | -0.244
ATACTGAG | 0.00549
AGATTTTA | -0.0902
ATGGTGTA | -0.0876
AGAAGTTA | -0.24
GGCGACCC | 0.242
CAACGGCG | 0.401
GATACGTA | 0.00396
CACCAAAC | -0.141
CCAGGGGG | -0.163

Block 4 — technique: RNA Bind-n-Seq; form: RNA; sample: in vitro; tested at: not given; reference: input RNA pool; reading: higher = stronger binding
Target: RING finger protein unkempt homolog, zinc fingers 1-6, GST-SBP tag (UNK, Homo sapiens, UniProt Q9C0B0, residues 30-357)
Sequence of UniProt Q9C0B0 (30-357, looked up): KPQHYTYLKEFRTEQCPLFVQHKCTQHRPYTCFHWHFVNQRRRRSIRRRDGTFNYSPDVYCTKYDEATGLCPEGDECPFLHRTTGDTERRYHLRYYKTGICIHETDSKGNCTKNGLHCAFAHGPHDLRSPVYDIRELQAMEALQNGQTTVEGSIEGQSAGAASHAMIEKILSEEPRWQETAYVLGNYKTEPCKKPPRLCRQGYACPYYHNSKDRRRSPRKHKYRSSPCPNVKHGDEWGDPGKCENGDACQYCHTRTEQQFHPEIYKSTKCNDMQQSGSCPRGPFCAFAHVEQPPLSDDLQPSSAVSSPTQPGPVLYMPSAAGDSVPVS
Setting: RNA with constant flanks, human and mouse sites, ends assumed
Constant ends, left off below: GGGAGUUCUACAGUCCGACGAUC … CAACAGAGGAUUGAGCAUCA
Strand | bound/input enrichment
UCCAAAGUUGUCCGUGUUAGAGCAGAUUUGCUUGACGAGUUAAUUAAAUCAGGGCAGUUACUAGGCGUGAAAUUUAUAGCAGAGCUUGGUGUCCCACUGUCACAGGUUAAAAGCAUAUCA | 0.371 ratio
ACGACAAAGAGGAUUGUGGAGAACGGUCAAGAAAGAGUAGAAGUUGAAGAAGAUGGGCAGUUAAAGUCCUUGACAAUAAAUGGUAAGGAGCACCUGCUACGCUUGGAUAACAAGUAACUC | 0.292 ratio
UGUGUGUGUGCCAUCGUGCCUGGCUUAAAAUUGCUUAUUUUGAAUUCUUUUUAAAAAAAAAAAUCACAUUACAUUUUUCAGUCUUCUACUGCUUUAAAUUCCUGUUACCCUGAGAAGGUU | 0.3 ratio
UUACUUGAGAUGAACCUUAUGCAUGCGCCUCAAGUUGCAGAUGCUAUUCUAGGCAAUCAGAUGUUCACACAUUAUGACCGGGCUCAUAUUGCUCAACUGUGUGAAAAGGCUGGCCUACUG | 0.137 ratio
GACUUGUGCUGCCUGUGUGGAUCUAUGUCUUGGAGAGAAGCUGUGUGCAUCAGCUGCAAAUAACAUUUUAAAAAUCAACAUGUACUGUGCUUAUCCUGUCCCUGGAAUGGGCAACAAUUC | 0.185 ratio
UCGCUGCUGGAUUUGCUGGAAUGCUCUGUGUGCCUGGAGCGCCUGGACACUACGGCCAAGGUGUUGCCAUGCCAGCACACCUUCUGCCGACGCUGUCUGGAGAGCAUCGUGUGCUCGCGC | 0.143 ratio
GGAAAUGUUCAGCCAUACUGUGGCCACGACUGGACCCUUUGUUUUACAGGAGAUUCUAAACUUGCCUCAAGUAUGCGCUAUGUGGAAACACAAUCAAUGCAGAUAGGAGCAUCCUAUAUG | 0.123 ratio
CGAAUGUUUGCUUACUUCCGACGCAACGCGGCCACGUGGAAGAAUGCAGUGCGUCAUAAUCUUAGUCUUCACAAGUGUUUUGUGCGAGUAGAAAACGUUAAAGGGGCAGUAUGGACAGUG | 4.77 ratio

A few entries again (block 3):
Strand | E-score
AAATGTGA | -0.0106
GAGGGGAA | -0.0959
GGCGACCC | 0.242
GAACCGGA | 0.234
AGATTTTA | -0.0902
CATCTTAC | -0.144
